Assay results pooled from the literature.
Each line is one published result; not all experiments were run side by side. Values joined by “and” are separate records of one study, mostly repeats; a detail may differ.
GBA2: Beta-glucosidase (GBA2, Homo sapiens, UniProt Q9HCG7)
Sequence of UniProt Q9HCG7 (whole entry, looked up): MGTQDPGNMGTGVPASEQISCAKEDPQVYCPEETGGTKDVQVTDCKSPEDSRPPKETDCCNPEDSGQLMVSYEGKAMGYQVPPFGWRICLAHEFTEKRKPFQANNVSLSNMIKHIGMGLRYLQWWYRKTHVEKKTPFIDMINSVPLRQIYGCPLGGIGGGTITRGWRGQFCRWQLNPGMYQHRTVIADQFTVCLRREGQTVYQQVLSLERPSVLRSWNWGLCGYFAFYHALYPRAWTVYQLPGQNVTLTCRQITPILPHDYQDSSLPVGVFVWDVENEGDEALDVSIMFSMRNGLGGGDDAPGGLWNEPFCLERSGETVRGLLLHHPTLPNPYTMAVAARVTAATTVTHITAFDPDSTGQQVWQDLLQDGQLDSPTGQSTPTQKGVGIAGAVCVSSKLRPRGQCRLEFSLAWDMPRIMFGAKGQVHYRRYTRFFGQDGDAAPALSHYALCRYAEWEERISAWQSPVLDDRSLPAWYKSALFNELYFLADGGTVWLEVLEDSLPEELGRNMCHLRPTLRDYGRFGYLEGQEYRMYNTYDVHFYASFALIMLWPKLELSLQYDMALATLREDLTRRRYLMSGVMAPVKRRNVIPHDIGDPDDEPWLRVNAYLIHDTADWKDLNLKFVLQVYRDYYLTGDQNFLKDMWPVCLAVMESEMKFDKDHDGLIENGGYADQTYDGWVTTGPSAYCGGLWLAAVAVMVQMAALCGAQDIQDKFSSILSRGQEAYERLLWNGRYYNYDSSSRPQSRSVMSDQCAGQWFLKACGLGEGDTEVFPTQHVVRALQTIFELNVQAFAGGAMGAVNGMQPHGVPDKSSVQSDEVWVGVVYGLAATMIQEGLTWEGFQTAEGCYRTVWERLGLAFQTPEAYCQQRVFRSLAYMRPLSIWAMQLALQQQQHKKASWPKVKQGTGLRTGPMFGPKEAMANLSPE
HSP90B1: Endoplasmin (HSP90B1, Canis lupus familiaris, UniProt P41148)
Sequence of UniProt P41148 (whole entry, looked up): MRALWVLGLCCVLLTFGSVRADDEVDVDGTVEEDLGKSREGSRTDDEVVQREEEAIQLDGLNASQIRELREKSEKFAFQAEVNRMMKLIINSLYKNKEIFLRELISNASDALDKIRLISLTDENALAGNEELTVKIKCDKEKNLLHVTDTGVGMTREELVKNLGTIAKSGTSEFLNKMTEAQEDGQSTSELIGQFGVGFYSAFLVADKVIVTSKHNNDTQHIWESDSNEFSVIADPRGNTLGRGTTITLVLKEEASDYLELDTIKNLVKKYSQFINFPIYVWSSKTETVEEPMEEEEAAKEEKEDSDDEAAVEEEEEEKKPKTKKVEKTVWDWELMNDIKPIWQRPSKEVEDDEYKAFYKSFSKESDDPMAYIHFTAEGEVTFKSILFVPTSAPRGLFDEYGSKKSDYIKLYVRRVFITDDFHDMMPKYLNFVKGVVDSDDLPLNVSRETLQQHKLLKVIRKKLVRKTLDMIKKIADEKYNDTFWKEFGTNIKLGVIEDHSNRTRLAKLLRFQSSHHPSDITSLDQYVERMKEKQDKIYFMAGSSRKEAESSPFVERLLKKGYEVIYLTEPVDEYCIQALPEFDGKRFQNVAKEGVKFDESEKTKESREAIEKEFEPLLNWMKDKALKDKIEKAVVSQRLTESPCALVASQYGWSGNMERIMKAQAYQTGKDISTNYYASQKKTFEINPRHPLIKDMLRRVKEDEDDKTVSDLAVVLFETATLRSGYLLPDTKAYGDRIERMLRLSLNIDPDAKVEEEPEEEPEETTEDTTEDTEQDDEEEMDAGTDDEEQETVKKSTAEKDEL
E3 SUMO-protein ligase CBX4: E3 SUMO-protein ligase CBX4 (Homo sapiens, UniProt O00257)
Sequence of UniProt O00257 (whole entry, looked up): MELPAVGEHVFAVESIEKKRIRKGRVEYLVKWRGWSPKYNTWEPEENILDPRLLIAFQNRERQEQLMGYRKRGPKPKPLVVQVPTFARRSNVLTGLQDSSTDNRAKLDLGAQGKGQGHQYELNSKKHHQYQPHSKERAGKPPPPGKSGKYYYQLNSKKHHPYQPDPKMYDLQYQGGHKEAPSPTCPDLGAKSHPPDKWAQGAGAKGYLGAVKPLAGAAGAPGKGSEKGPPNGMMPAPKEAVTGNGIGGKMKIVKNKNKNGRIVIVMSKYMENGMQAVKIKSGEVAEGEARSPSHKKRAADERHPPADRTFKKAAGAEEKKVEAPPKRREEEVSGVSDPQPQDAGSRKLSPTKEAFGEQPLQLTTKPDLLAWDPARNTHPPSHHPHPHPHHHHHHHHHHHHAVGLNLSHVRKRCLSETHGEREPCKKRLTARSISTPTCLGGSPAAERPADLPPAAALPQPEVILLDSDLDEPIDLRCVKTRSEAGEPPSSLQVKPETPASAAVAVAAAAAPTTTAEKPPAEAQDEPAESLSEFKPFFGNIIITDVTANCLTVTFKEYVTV
Sequence of UniProt P28161 (whole entry, looked up): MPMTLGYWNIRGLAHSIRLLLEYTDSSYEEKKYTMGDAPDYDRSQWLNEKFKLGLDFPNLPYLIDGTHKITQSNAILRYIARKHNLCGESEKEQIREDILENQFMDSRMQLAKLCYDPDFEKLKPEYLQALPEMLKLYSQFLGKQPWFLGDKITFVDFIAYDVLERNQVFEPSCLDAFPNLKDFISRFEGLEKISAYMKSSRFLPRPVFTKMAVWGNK

| Compound | target | test | system | conditions | scale | selectivity ratio |
| --- | --- | --- | --- | --- | --- | --- |
| OC[C@@H]1[C@@H](O)[C@H](O)[C@@H](O)CN1CCCCCOCC1CCOC1 (stereo partly shown) | GBA2 | – | – | – | baseline: GBA1 over target | 1720 |
| CCOc1ccccc1Cc1ccccc1CCc1c(Cl)c(O)cc(O)c1C(=O)OC | HSP90B1 | fluorescence polarization | – | together with: FITC-geldanamycin tracer | baseline: HSP90B1 over Hsp90α | > 16 fold |
| C=C(CC)C(=O)c1ccc(OCC(=O)NCCCCNC(=O)COc2ccc(C(=O)C(=C)CC)c(Cl)c2Cl)c(Cl)c1Cl | Glutathione S-transferase Mu 2 (Homo sapiens, UniProt P28161) | enzyme activity, inhibitor | – | no preincubation | baseline: GSTP IC50 over GSTM IC50 | ~47 fold |
| CN(C)CCNC(=O)c1cccc2c(NCCCCc3c(N)nc(N)nc3N)c3ccccc3nc12 | herring sperm DNA | binding, ITC | – | – | baseline: Kd RNA A over Kd herring sperm DNA | 10 |
| CC(=O)N[C@H](Cc1ccc2ccccc2c1)C(=O)N[C@](C)(Cc1ccc(Cl)cc1)C(=O)N[C@H](Cc1c[nH]c2ccccc12)C(=O)N[C@@H](CO)C(=O)N[C@@H](CCCCNC(C)C)C(=O)N[C@H](Cc1ccc(O)cc1)C(=O)N[C@@H](CC(C)C)C(=O)N[C@@H](CCCNC(=N)N)C(=O)N1CCC[C@H]1C(=O)N[C@H](C)C(N)=O | Gonadotropin-releasing hormone receptor (Gallus gallus, UniProt Q9DDC9) | binding, whole-cell radioligand binding | COS-7 transfected | – | baseline: Gonadotropin-releasing hormone receptor over cGnRH-R-III | 56 fold |
| C[C@H](NC(=O)[C@H](Cc1ccccc1)NC(=O)c1ccc(C(F)(F)F)cc1)C(=O)N[C@H](C(=O)N[C@@H](CCCC[N+](C)(C)C)C(=O)N[C@@H](CO)C(N)=O)C1CCCC1 | E3 SUMO-protein ligase CBX4 | competitive fluorescence polarization | – | – | baseline: Cbx7 over E3 SUMO-protein ligase CBX4 | > 4 fold and 5.3 fold |
| CC(OCCCCCN1C[C@H](O)[C@@H](O)[C@H](O)[C@H]1CO)C(C)(C)C (stereo partly shown) | GBA2 | enzyme activity, inhibitor, 4-MU-β-D-glucopyranoside | HEK293T cell homogenate | – | baseline: GCS IC50 over GBA2 IC50 | 1020 |
| CCN(CC)CCCC[C@H](NC(=O)[C@@H](NC(=O)[C@H](C)NC(=O)[C@H](Cc1ccccc1)NC(=O)c1ccc(C(F)(F)F)cc1)C1CCCC1)C(=O)N[C@@H](CO)C(N)=O | E3 SUMO-protein ligase CBX4 | competitive fluorescence polarization | – | – | baseline: Cbx7 over E3 SUMO-protein ligase CBX4 | 3.1 fold |
| OC[C@@H]1[C@@H](O)[C@H](O)[C@@H](O)CN1CCCCCOCC1CCCO1 (stereo partly shown) | GBA2 | enzyme activity, inhibitor, 4-MU-β-D-glucopyranoside | HEK293T cell homogenate | – | baseline: GCS IC50 over GBA2 IC50 | > 282 |
| COC(=O)c1c(O)cc(O)c(Cl)c1CCc1ccccc1Cc1ccc(Cl)cc1 | HSP90B1 | fluorescence polarization | – | together with: FITC-geldanamycin tracer | baseline: HSP90B1 over Hsp90α | > 24 fold |

Repeated from above:
| Compound | target | test | system | conditions | scale | selectivity ratio |
| --- | --- | --- | --- | --- | --- | --- |
| CC(OCCCCCN1C[C@H](O)[C@@H](O)[C@H](O)[C@H]1CO)C(C)(C)C (stereo partly shown) | GBA2 | enzyme activity, inhibitor, 4-MU-β-D-glucopyranoside | HEK293T cell homogenate | – | baseline: GCS IC50 over GBA2 IC50 | 1020 |
